Measured values from different studies.
Each line is one published result; not all experiments were run side by side.
Method: steady-state kinetics
B1: EutE V13D (Escherichia coli, UniProt P77445); chain MNQQDIEQVVKADLLKMQSSDTPSAAVHEMGVFASLDDAVAAAKVAQQGLKSVAMRQLAIAAIREAGEKHARDLAELAVSETGMGRVEDKFAKNVAQARGTPGVECLSPQVLTGDNGLTLIENAPWGVVASVTPSTNPAATVINNAISLIAAGNSVIFAPHPAAKKVSQRAITLLNQAIVAAGGPENLLVTVANPDIETAQRLFKFPGIGLLVVTGGEAVVEAARKHTNKRLIAAGAGNPPVVVDETADLARAAQSIVKGASFDNNIICADEKVLIVVDSVADELMRLMEGQHAVKLTAEQAQQLQPVLLKNIDERGKGTVSRDWVGRDAGKIAAAIGLKVPQETRLLFVETTAEHPFAVTELMMPVLPVVRVANVADAIALAVKLEGGCHHTAAMHSRNIENMNQMANAIDTSIFVKNGPCIAGLGLGGEGWTTMTITTPTGEGVTSARTFVRLRRCVLVDAFRIV
B2: ATIC (Cryptococcus neoformans, UniProt J9VJP1); chain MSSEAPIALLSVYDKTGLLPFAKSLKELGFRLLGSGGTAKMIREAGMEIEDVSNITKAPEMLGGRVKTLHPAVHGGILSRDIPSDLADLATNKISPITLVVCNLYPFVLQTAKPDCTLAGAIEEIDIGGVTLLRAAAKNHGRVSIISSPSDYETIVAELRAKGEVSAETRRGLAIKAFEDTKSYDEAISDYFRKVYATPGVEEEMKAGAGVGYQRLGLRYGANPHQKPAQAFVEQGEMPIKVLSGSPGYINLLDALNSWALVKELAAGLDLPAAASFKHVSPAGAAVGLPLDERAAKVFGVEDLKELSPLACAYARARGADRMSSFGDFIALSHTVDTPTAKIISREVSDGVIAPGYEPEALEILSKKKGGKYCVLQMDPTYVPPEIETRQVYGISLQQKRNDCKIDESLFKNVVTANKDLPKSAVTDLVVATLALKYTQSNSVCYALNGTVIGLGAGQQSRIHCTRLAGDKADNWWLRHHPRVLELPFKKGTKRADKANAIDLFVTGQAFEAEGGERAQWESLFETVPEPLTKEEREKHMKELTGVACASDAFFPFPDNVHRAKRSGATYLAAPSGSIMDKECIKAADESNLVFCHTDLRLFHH
B3: STS (Homo sapiens, UniProt P08842); chain HAASRPNIILVMADDLGIGDPGCYGNKTIRTPNIDRLASGGVKLTQHLAASPLCTPSRAAFMTGRYPVRSGMASWSRTGVFLFTASSGGLPTDEITFAKLLKDQGYSTALIGKWHLGMSCHSKTDFCHHPLHHGFNYFYGISLTNLRDCKPGEGSVFTTGFKRLVFLPLQIVGVTLLTLAALNCLGLLHVPLGVFFSLLFLAALILTLFLGFLHYFRPLNCFMMRNYEIIQQPMSYDNLTQRLTVEAAQFIQRNTETPFLLVLSYLHVHTALFSSKDFAGKSQHGVYGDAVEEMDWSVGQILNLLDELRLANDTLIYFTSDQGAHVEEVSSKGEIHGGSNGIYKGGKANNWEGGIRVPGILRWPRVIQAGQKIDEPTSNMDIFPTVAKLAGAPLPEDRIIDGRDLMPLLEGKSQRSDHEFLFHYCNAYLNAVRWHPQNSTSIWKAFFFTPNFNPVGSNGCFATHVCFCFGSYVTHHDPPLLFDISKDPRERNPLTPASEPRFYEILKVMQEAADRHTQTLPEVPDQFSWNNFLWKPWLQLCCPSTGLSCQCDREKQDKRLSR
B4: GLYR2 (Arabidopsis thaliana, UniProt F4I907); chain STRDELGTVSIGFLGMGIMGSPMAQNLIKAGCDVTVWNRTKSKCDPLVGLGAKYKSSPEEVTATCDLTFAMLADPESAIDVACGKNGAIFGISSGKGYVDVSTVDVASSILISKQIKDTGALFLEAPVSGSKKPAEDGQLIFLTAGDKPLYEKAAPFLDIMGKSKFYLGEVGNGAAMKLVVNMIMGSMMASFAEGILLSQKVGLDPNVLVEVVSQGAINAPMYSLKGPSMIKSVYPTAFPLKHQQKDMRLALGLAESVSQSTPIAAAANELYKVAKSYGLSDEDFSAVIEALKAAKSREA
B5: Ptgds (Mus musculus, UniProt O09114); chain QGHDTVQPNFQQDKFLGRWYSAGLASNSSWFREKKAVLYMCKTVVAPSTEGGLNLTSTFLRKNQCETKIMVLQPAGAPGHYTYSSPHSGSIHSVSVVEANYDEYALLFSRGTKGPGQDFRMATLYSRTQTLKDELKEKFTTFSKAQGLTEEDIVFLPQPDKCIQE
UniProt J7SZ64, sequence (whole entry, looked up): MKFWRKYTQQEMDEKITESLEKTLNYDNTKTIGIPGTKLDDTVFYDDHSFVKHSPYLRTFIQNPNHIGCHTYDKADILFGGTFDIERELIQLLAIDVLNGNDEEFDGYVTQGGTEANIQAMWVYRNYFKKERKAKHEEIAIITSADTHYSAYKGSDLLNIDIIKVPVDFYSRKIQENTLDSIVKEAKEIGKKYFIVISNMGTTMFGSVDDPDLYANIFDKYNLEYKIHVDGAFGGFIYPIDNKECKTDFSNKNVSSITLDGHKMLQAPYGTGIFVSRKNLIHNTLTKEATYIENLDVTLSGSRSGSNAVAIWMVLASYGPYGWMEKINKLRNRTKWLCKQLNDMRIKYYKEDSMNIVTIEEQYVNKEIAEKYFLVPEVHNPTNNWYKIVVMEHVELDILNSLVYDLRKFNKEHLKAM
UniProt C5B120, sequence (whole entry, looked up): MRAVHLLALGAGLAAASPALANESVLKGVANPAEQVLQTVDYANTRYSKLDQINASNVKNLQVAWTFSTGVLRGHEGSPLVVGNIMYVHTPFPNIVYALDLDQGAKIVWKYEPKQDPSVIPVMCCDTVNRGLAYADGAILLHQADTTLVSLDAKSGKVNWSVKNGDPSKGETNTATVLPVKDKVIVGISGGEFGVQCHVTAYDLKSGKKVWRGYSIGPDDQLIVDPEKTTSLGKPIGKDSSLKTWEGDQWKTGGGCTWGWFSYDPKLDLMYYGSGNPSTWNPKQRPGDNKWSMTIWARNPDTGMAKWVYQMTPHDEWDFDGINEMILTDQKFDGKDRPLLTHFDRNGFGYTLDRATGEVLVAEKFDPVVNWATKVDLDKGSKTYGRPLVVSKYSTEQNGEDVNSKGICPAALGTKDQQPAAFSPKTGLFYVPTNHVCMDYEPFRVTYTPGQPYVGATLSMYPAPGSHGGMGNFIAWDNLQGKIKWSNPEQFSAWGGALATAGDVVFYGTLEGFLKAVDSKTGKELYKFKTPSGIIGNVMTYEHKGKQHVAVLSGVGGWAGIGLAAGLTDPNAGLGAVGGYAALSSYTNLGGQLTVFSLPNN

For `xoxF1 (Methylorubrum extorquens, UniProt C5B120)`, the Vmax was 1.86 µmol/min/mg (CO; 30 °C).
`B1 (EutE V13D)` gave a Vmax of 11.5 µmol/min/mg (CC=O; lysate; not purified, added: CoA, NAD+).
With `B2 (ATIC)` the Vmax was 6.7 µmol/min/mg (NC(=O)c1ncn([C@@H]2O[C@H](COP(=O)(O)O)[C@@H](O)[C@H]2O)c1N; pH 7.5, 37 °C, KCl 25 mM, apparent, added: N10-formyl-tetrahydrofolate 0.1 mM).
The Vmax of `protein I196L (UniProt Q52060)` is reported as 15 µmol/min/mg (CC=O; lysate; not purified, added: CoA, NAD+).
With `GlcAK1 (Arabidopsis thaliana, UniProt A0A1I9LRK4)` the Vmax was 12.6 µmol/min/mg (Nc1ncnc2c1ncn2[C@@H]1O[C@H](COP(=O)(O)OP(=O)(O)OP(=O)(O)O)[C@@H](O)[C@H]1O; pH 7.5, 25 mM KCl, Hill fit, added: 1 mM GlcA; 10 mM MgCl2).
`B3 (STS)` gave a Vmax of 0.000883 µmol/min/mg ([H][C@@]12CC=C3C[C@@H](OS(=O)(=O)O)CC[C@]3(C)[C@@]1([H])CC[C@]1(C)C(=O)CC[C@@]21[H]; pH 7, 37 °C, not purified).
The Vmax of `B4 (GLYR2)` is reported as 23 µmol/min/mg (NC(=O)C1=CN([C@@H]2O[C@H](COP(=O)(O)OP(=O)(O)OC[C@H]3O[C@@H](n4cnc5c(N)ncnc54)[C@H](OP(=O)(O)O)[C@@H]3O)[C@@H](O)[C@H]2O)C=CC1; pH 7.6, 30 °C, cofactor varied).
For `B5 (Ptgds)`, the Vmax was 5.4 µmol/min/mg ([H][C@]12C[C@]([H])(OO1)[C@H](C/C=C\CCCC(=O)O)[C@H]2/C=C/[C@@H](O)CCCCC; pH 8, 25 °C).
With `aromatic amino acid decarboxylase (Clostridium sporogenes, UniProt J7SZ64)` the Vmax was 0.3 µmol/min/mg (N[C@@H](Cc1c[nH]c2c(Br)cccc12)C(=O)O; pH 7, 37 °C, not purified, added: PLP 40 µM).
`pat (Salmonella enterica, UniProt Q8ZMX2)` has a Vmax of 2.7 µmol/min/mg (CC(=O)SCCNC(=O)CCNC(=O)[C@H](O)C(C)(C)COP(=O)(O)OP(=O)(O)OC[C@H]1O[C@@H](n2cnc3c(N)ncnc32)[C@H](O)[C@@H]1OP(=O)(O)O; pH 7.5, 37 °C, apparent, sigmoidal fit, added: AcsC 400 µM).

Excerpt of the above:
With `GlcAK1 (Arabidopsis thaliana, UniProt A0A1I9LRK4)` the Vmax was 12.6 µmol/min/mg (Nc1ncnc2c1ncn2[C@@H]1O[C@H](COP(=O)(O)OP(=O)(O)OP(=O)(O)O)[C@@H](O)[C@H]1O; pH 7.5, 25 mM KCl, Hill fit, added: 1 mM GlcA; 10 mM MgCl2).
